Results pooled from the literature.
A part holds a random share of what one study measured.

Sample 1 — method: RNA Bind-n-Seq; molecule type: RNA; medium: in vitro; tested at: 200 nM; notes: whole 134-nt RNA, ends assumed; together with: 150 mM KCl; baseline: input library; reading: higher = stronger binding
Target: Fragile X messenger ribonucleoprotein 1, C-terminal low-complexity region (Fmr1, Mus musculus, UniProt P35922)
Shared flanks, not repeated: GGGAGUUCUACAGUCCGACGAUC … UGGAAUUCUCGGGUGUCAAGG
The log2 enrichment of `UUUCCAAGAAGUGCACUGAAAAUGACAUCCGAGUCAUGUUCUCUUCGUUUGGACAGAUUGAAGAAUGCCGGAUAUUGCGGGGACCUGAUG` is reported as 0.00412.
The log2 enrichment of `CAAGUCCUGUGCUACACAUCGUAUGUACCGAAUCGGGGUGGGGUUUGGGGUGGGGAAAGUAUUAUGUUACGCCGUUCGGAUCUGCACUUC` is reported as 1.3.
With `AGUCCUGUGCUACACAUCGUAUGUACCGAAUCGGAAAAGGGAAAAGGGGAAAAGGGGAAAGUAUUAUGUUACGCCGUUCGGAUCUGCACU` the log2 enrichment was 0.0964.
The log2 enrichment of `UCCUGUGCUACACAUCGUAUGUACCGAAUCGGGGAAAAAAGGAAAAAAGGGAAAAAAGGAAAGUAUUAUGUUACGCCGUUCGGAUCUGCA` is reported as -0.269.
For `UCCUGUGCUACACAUCGUAUGUACCGAAUCGGGGAAAGGGGUUUUUGGGGUUUUUGGGGAAAGUAUUAUGUUACGCCGUUCGGAUCUGCA`, the log2 enrichment was 0.864.
`GCAGGAAGUAAAAACAAAUGGAAAUGCUUCGGAUAGUGGCAGGGGCGGGGGUUGCUAAGGAAAGGGUGGGAUGGGAGUGGGUAAAGAGUU` gave a log2 enrichment of 0.265.
`CCUGUGCUACACAUCGUAUGUACCGAAUCGGGGAAAAAAGGGAAAAAAGGAAAAAAGGGGAAAGUAUUAUGUUACGCCGUUCGGAUCUGC` gave a log2 enrichment of -0.509.
For `AGUCCUGUGCUACACAUCGUAUGUACCGAAUCGGAAAAAGGUUUUUUUGGUUUUUGGAAAGUAUUAUGUUACGCCGUUCGGAUCUGCACU`, the log2 enrichment was -1.55.
`UGGCCCUGGUAGCAUGCGGGGAGGAAGAGGUGGCCUCAUGGAUCGUGGUGGUCCCGGUGGAAUGUUCAGAGGUGGCCGUGGUGGAGACAG` has a log2 enrichment of 0.0201.
For `CUUAUGCCUUCCCCACUGGUAUUGAGGGUUUUGAUAAUAAAUUGGUAGGAAAAAAAAGUACCUCCUAGAAGGAAGCCUUCCCCACCAUUU`, the log2 enrichment was -0.169.
The log2 enrichment of `GUCCUGUGCUACACAUCGUAUGUACCGAAUCGGAAAAAAGGAAAAAAGGGAAAAAAGGGAAAGUAUUAUGUUACGCCGUUCGGAUCUGCA` is reported as -0.789.
`UUCUCUGCCGGCUCAGAGGAGAGGAGACGCCGUGAGCGGGACGACCAGAUGUACCGAGAGCGGCUGCGCACCUUGCUGGUCAUCGCGGUU` gave a log2 enrichment of -1.84.

Sample 2 — method: protein binding microarray; molecule type: double-stranded DNA, one strand shown; medium: in vitro; tested at: not given; baseline: not given; reading: higher = stronger binding
Target: Histone acetyltransferase KAT6A, winged helix 2, GST fusion (KAT6A, Homo sapiens, UniProt Q92794, residues 85-181)
Notes: 8-mer, flanks averaged, mean of 2 arrays, mostly near background
Residues (chain): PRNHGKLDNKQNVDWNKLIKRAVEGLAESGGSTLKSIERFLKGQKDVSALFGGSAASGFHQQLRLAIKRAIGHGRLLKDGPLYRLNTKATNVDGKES
For `GACTTATA`, the E-score was -0.028.
For `GCTTTGTA`, the E-score was 0.134.
For `GGTAAAAC`, the E-score was -0.00378.
`GTGAATCA` gave an E-score of -0.103.
`ACACTAAG` gave an E-score of -0.0697.
The E-score of `CATGACGC` is reported as 0.0138.
With `CATACAAG` the E-score was -0.201.
`GATCCGGC` gave an E-score of 0.113.
The E-score of `ACTATGAG` is reported as -0.143.
With `GCAGCCTA` the E-score was -0.0278.
`GCCCGGAC` has an E-score of 0.0489.
With `ACCCAAAT` the E-score was -0.0253.
The E-score of `CTATCGGA` is reported as 0.0249.
The E-score of `ATGGAAAG` is reported as -0.0605.
`CAATGCCC` has an E-score of -0.0504.

Sample 3 — method: aptamer microarray, sandwich; molecule type: DNA with 2'F-ANA; medium: in vitro; tested at: 200 nM; together with: Cy3 exosite-II aptamer, 400 nM; reading: higher = stronger binding; sequence: GGTTGGTGTGGTTGG
Target: Prothrombin, mature alpha-thrombin (F2, Homo sapiens, UniProt P00734)
Notes: whole 15-mer aptamer, many near background
Under “mean fluorescence intensity”, `2'F-ANA at 2 4 5 7 11` is recorded as 60 a.u.
`2'F-ANA at 1 6 8 9 11 15` — result for “mean fluorescence intensity”: 150 a.u.
For `2'F-ANA at 3 7 10 11 12 15`, “mean fluorescence intensity” read 637 a.u.
`2'F-ANA at 1 11 12 15`: “mean fluorescence intensity” 341 a.u.
Under “mean fluorescence intensity”, `2'F-ANA at 2 4 6 8 11 13 15` is recorded as 194 a.u.
`2'F-ANA at 2 3 6 7 10 11 13 14` — result for “mean fluorescence intensity”: 238 a.u.
For `2'F-ANA at 2 3 5 12 14 15`, “mean fluorescence intensity” read 63.8 a.u.
`2'F-ANA at 6 7 11 12 13 15`: “mean fluorescence intensity” 571 a.u.

Single results of other studies
`PhoQ, residues 284 288 289 292 302 303 SCKMEA` has a fold induction of 23.9 (PhoP, residues 12 14 15 18 19 NQFFI (Escherichia coli, UniProt P23836); Sort-seq, item: YFP reporter; E. coli; PhoQ-PhoP variant library, together with: 10 µM Mg2+; baseline: high Mg2+ state, higher = stronger signaling).

Some of these lines once more (sample 2):
`GATCCGGC` gave an E-score of 0.113.
The E-score of `ACTATGAG` is reported as -0.143.
With `GCAGCCTA` the E-score was -0.0278.
`GCCCGGAC` has an E-score of 0.0489.
With `ACCCAAAT` the E-score was -0.0253.
